Results of several laboratories.
Each line is one published result; not all experiments were run side by side. Several values in a cell are separate wells, animals, samples, runs or records. Numbers after ± are the reported error.

Compound | cell line | assay | system | setting | scale | quantity | result
Cn1cncc1C1=CN(c2ncnc3[nH]cnc23)CCS1 | T29 |  |  | colon cancer |  | TGI | 89.1 µM
Nc1ncnc2c1ncn2[C@@H]1O[C@H](CO)[C@@H](O)[C@H]1O | activated human T cells | refers to: UDP |  | 50 µM | relative to: DMSO | log2 fold change | -3.9
O=C(/C=C/C=C/C=C/C1CCCCC1)NC1=C[C@@](O)(/C=C/C=C/C=C/C(=O)NC2=C(O)CCC2=O)[C@@H]2O[C@@H]2C1=O | TE-10 | cell growth, CellTiter-Glo |  | 78 h |  | GI50 | 20.2 µM
N=C(N)c1ccc(OCCCCCOc2ccc(C(=N)N)cc2)cc1 | human iPSC-derived cardiomyocytes | MyBP-C/MYH ratio, plate-normalised SD score |  | concentration not given, primary screen | direction not given | activity score | 3.7
CCn1cc(-c2cc(Cn3ccnc3)cc3c2CCN([C@H](c2cc(OC)ccn2)C2CC2)C3=O)c(C(F)(F)F)n1 | HT | cell growth |  | 120 h |  | EC50 | 0.0255 µM
CCCN1CCN(c2ccc3[nH]c(-c4ccc5[nH]c(-c6ccc(OCC)c(OCC)c6)nc5c4)nc3c2)CC1 | M14 | SRB |  | 10 µM, 48 h |  | growth percent | -65.7%
NC(=O)NC1NC(=O)NC1=O (centres unmarked) | human iPSC-derived cardiomyocytes | MyBP-C/MYH ratio, plate-normalised SD score |  | concentration not given, primary screen | direction not given | activity score | -4.7
CN(C)CCCOc1cc(NC(=O)c2cccc(C(=O)Nc3cc(OCCCN(C)C)c4ccccc4n3)n2)nc2ccccc12 | U2OS | cell viability, CellTiter-Glo |  | 72 h | relative to: IC50 U2OS over WI-38 | selectivity ratio | 1
Nc1cccc2c1C(=O)N(C1CCC(=O)NC1=O)C2=O (centres unmarked) | RPMI-8226 | flow cytometry, refers to: CD227 |  | concentration not given | relative to: comparator compound alone | surface marker level | 226%
C=CC1=C(C)c2cc3[n-]c(cc4nc(cc5[n-]c(cc1n2)c(C)c5C=C)C(C)=C4CCC(=O)O)c(CCC(=O)O)c3C.[Zn+2] | SH-SY5Y | RNA-seq, refers to: NEAT1 |  | 5 µM, 5 h | relative to: untreated | log2 fold change | 1.96
Cn1cc(Nc2nccc(-c3ccc4c(c3)CN(C3COC3)CC[C@H]4NC(=O)c3cn(C(C)(C)C)nn3)n2)cn1 | mouse splenic B cells | refers to: apelin Cardiomyocyte signalling pathway |  | 30 mg/kg, IgD-activated in vivo | relative to: vehicle, direction not given | pathway activation z-score | 3
CCCCCCCC/C=C/CCCCCCCCOP(=O)([O-])OCC[N+](C)(C)C | human iPSC-derived cardiomyocytes | MyBP-C/MYH ratio, plate-normalised SD score |  | concentration not given, primary screen | direction not given | activity score | 16.8
CC1(C)CCC(CN2CCN(c3ccc(C(=O)NS(=O)(=O)c4ccc(NCC5CCOCC5)c([N+](=O)[O-])c4)c(Oc4cnc5[nH]ccc5c4)c3)CC2)=C(c2ccc(Cl)cc2)C1 | K562 | annexin V/PI flow cytometry, refers to: annexin V+/PI- |  | 3.2 µM, 24 h |  | early apoptotic cells | 2.9%
O=C(CCCSc1nc2ccccc2c(=O)[nH]1)Nc1ccc(F)cc1 | cells, COS-1, expressing proMMP-9 | cell migration, 2D collagen dot migration |  | 50 µM, 18 h |  | inhibition | 73 ± 2%
Cc1c(C(=O)O)ccc2c3n(nc12)[C@@H]1[C@H](C3)N(CC2CC2)[C@@]2(C(=O)Nc3cc(Cl)ccc32)[C@H]1c1cccc(Cl)c1F | RKO (MDM2 non-amplified) | cell growth, alamarBlue |  | 120 h |  | IC50 | 0.059 µM
CCn1cc(C(=O)O)c(=O)c2cnc(N3CCNCC3)nc21 | human iPSC-derived cardiomyocytes | MyBP-C/MYH ratio, plate-normalised SD score |  | concentration not given, primary screen | direction not given | activity score | 3.1
CCCCN1C[C@H](O)[C@@H](O)[C@@H](O)[C@H]1CO | sample BB patient fibroblasts | acidic compartment staining, LysoTracker Red imaging |  | 216 h |  | IC50 | 26.2 µM
O=[N+]([O-])c1ccc(-c2ccc(/C=N/Nc3nc(N4CCCCC4)nc(N4CCCCC4)n3)o2)cc1 | C127 LDR GFP reporter cells | silenced GFP reporter induction, activator, high-content imaging |  | retest, two-run mean |  | efficacy | 28%
Cc1ccc(CNC(=O)Cn2cc(CSc3nc4ccccc4[nH]3)nn2)cc1 | HEK293 | MTT |  | 250 ppm |  | cytotoxicity | 90.1%
Cc1n[nH]c2nc(-c3ccc(Cl)cc3)c3c(NC(=O)c4ccccc4)nnc-3n12 | NCI60 cell panel | SRB |  | 10 µM |  | mean growth percent | 103%
Nc1cccc2c1CN(C1CCC(=O)NC1=O)C2=O (centres unmarked) | bone marrow CD138+ myeloma cells | XTT |  | 2 µM, mean of three patients |  | viability | 6%
Cn1cc(-c2ccc(-c3cncc(Cl)c3N3CCC4(CCNC4=O)CC3)cc2)cn1 | COLO 205 | microarray, refers to: PGF |  | concentration not given, 6 h, gene set PLGF | relative to: untreated cells | fold change in expression | 3.1
Nc1ncnc2c1ncn2[C@@H]1O[C@H](CO)[C@@H](O)[C@@H]1O | human iPSC-derived cardiomyocytes | MyBP-C/MYH ratio, plate-normalised SD score |  | concentration not given, primary screen | direction not given | activity score | -3.4
CC(=O)c1nn(-c2ccc(Cl)cc2)/c(=N/N=C(\C)c2ccc(NC(=O)c3ccccc3)cc2)s1 | HepG2 |  |  | 0.312 µM |  | toxicity | 85.5% and 96.9%
NNc1nc(-c2ccc(Cl)cc2)c2c(NC(=O)c3ccccc3)nnc-2[nH]1 | NCI60 cell panel | SRB |  | 10 µM |  | mean growth percent | 101%

Compound | cell line | assay | system | setting | scale | quantity | result
CC1=C(CC(=O)O)c2cc(F)ccc2/C1=C\c1ccc([S+](C)[O-])cc1 (centres unmarked) | human iPSC-derived cardiomyocytes | MyBP-C/MYH ratio, plate-normalised SD score |  | concentration not given, primary screen | direction not given | activity score | 3
CN(C)CCOc1cc(NC(=O)c2cc(Cl)cc(C(=O)Nc3cc(OCCN(C)C)c4ccccc4n3)n2)nc2ccccc12 | U2OS | cell viability, CellTiter-Glo |  | 72 h | relative to: IC50 U2OS over WI-38 | selectivity ratio | 1.8
CNc1ncnc2c1c(-c1ccc3cc(OC4CC4)ccc3c1)nn2CC(C)(C)O | LNCaP and LNCaP-95 | mitochondrial respiration, Seahorse |  | concentration not given |  | oxygen consumption rate | no effect
Cc1cc(Nc2ncc(Cl)c(Nc3ccccc3S(=O)(=O)C(C)C)n2)c(OC(C)C)cc1C1CCNCC1 | CLB-GE | phosphoproteomics LC-MS/MS, refers to: PTPN11 phosphorylation |  | 200 nM, 60 min | relative to: untreated | log2 fold change | -2.25
C[C@@H]1CN(c2c(F)c(F)c3c(=O)c(C(=O)O)cn(C4CC4)c3c2F)C[C@H](C)N1 | human iPSC-derived cardiomyocytes | MyBP-C/MYH ratio, plate-normalised SD score |  | concentration not given, primary screen | direction not given | activity score | 4.1
COc1ccc(C(=O)/C=C/Sc2nc3ccccc3o2)cc1 | C127 LDR GFP reporter cells | silenced GFP reporter induction, activator, high-content imaging |  | retest, two-run mean |  | efficacy | 38%
Clc1nc(NCc2ccco2)c2[nH]cnc2n1 | FD iPSC-derived cardiomyocytes | alternative splicing, RNA-seq, refers to: FAM184A exon chr6(-):118974427-118974574 |  | unit not given | relative to: DMSO minus compound | ΔPSI | -0.307
CN(C)S(=O)(=O)c1cccc(NC(=S)N/N=C/c2ccco2)c1 | C127 LDR GFP reporter cells | silenced GFP reporter induction, activator, high-content imaging |  | independent samples, two-run mean |  | maximum efficacy | 25%
C[C@H](CCC(=O)O)[C@H]1CC[C@H]2[C@@H]3CC[C@@H]4C[C@H](O)CC[C@]4(C)[C@H]3C[C@H](O)[C@]12C | HIEC |  |  | concentration not given, with: lithocholic acid | relative to: lithocholic acid alone | β-catenin expression | decreased
C=CCn1c(=O)c2cnc(Nc3ccc(N4CCN(C)CC4)cc3)nc2n1-c1ccc2c(n1)[C@@](O)(CC)CC2 | A-427 | capillary western blot |  | 0.1, 0.3, 1 µM, 16 h |  | cleaved caspase-3 level | increased
CC/C(=N\NC(=O)NCc1cccc(O)c1)c1ccc(O)c(C)c1O | SK-OV-3 | Western blot, refers to: TAZ |  | 10 µM, 1 h, 2D culture, unit not given | relative to: β-actin | protein level | 1.33 ± 0.4
C[C@H]1CNCCN1c1nccc(-c2noc3c2CCC[C@@]32CCCc3sc(N)c(C#N)c32)n1 | Ba/F3 (HRAS dependent) | cell growth |  | 72 h, without IL-3 |  | EC50 | 2.36 µM
CCn1cc(-c2cc(Cn3ccoc3=N)cc3c2CCN([C@@H](C)c2cc(OC)ccn2)C3=O)c(C(F)(F)F)n1 | SK-BR-3 | cell growth, inhibitor |  | 120 h |  | EC50 | 0.613 µM
Clc1ccc(C2(c3ccc(-c4cn[nH]c4)cc3)CCNCC2)cc1 | primary CLL cells | flow cytometry | human | 0.1 µM, 24 h | relative to: DMSO, higher = more protein | Mcl-1 MFI | 1190 a.u.
COC(=O)C(N)CS (centres unmarked) | human iPSC-derived cardiomyocytes | MyBP-C/MYH ratio, plate-normalised SD score |  | concentration not given, primary screen | direction not given | activity score | 3.2
COc1cnc2cccc(N3CCc4c(cc(Cn5ccnc5C)cc4-c4cn(C)nc4C(F)(F)F)C3=O)c2c1 | NCI-H446 | cell growth, inhibitor |  | 120 h |  | EC50 | > 30 µM
CCCCc1oc2ccc(NS(C)(=O)=O)cc2c1C(=O)c1ccc(OCCCN(CCCC)CCCC)cc1 | human embryonic stem cell aggregates | mRNA level, microarray, refers to: GPC4 |  | 0.5 µM, 120 h | relative to: untreated, down-regulated | fold change | 2.1 fold
O=C(CCCSc1nc2c(c(=O)[nH]1)CCCC2)Nc1ccc(F)cc1 | cells, COS-1, expressing proMMP-9 | cell migration, 2D collagen dot migration |  | 50 µM, 18 h |  | inhibition | 90 ± 2%
C[C@H](Nc1ccc2c(c1)OCCn1cc(N3C(=O)OC[C@H]3C(F)F)nc1-2)C(N)=O | TCC-SUP | cell growth, CellTiter-Glo |  | 120 h |  | Hill coefficient | 0.5
O=C(O)CCCCCN1C(=O)/C(=C\c2ccc(-c3ccc(Cl)cc3)o2)SC1=S | C127 LDR GFP reporter cells | silenced GFP reporter induction, activator, high-content imaging |  | retest, two-run mean |  | efficacy | 109%
CC/C(=N\NC(=O)C(C)Nc1ccccc1)c1ccc(O)c(C)c1O (centres unmarked) | SK-OV-3 | Western blot, refers to: YAP |  | 10 µM, 1 h, 2D culture, unit not given | relative to: β-actin | protein level | 1.61 ± 0.28
CCc1ccc(NC(=O)C2CCC(CNS(=O)(=O)c3ccc4c(c3)CC(C)N4C(C)=O)CC2)cc1 (centres unmarked) | C127 LDR GFP reporter cells | silenced GFP reporter induction, activator, high-content imaging |  | retest, two-run mean |  | efficacy | 29%
C=Cc1c2[n-]c(c1C)/C=c1\[n-]/c(c(C)c1C=C)=C\c1[n-]c(c(CCC(=O)O)c1C)/C=c1\[n-]c(c(C)c1CCC(=O)O)=C2.[Sn+4] | SH-SY5Y | RNA-seq, refers to: ERRFI1 mRNA |  | 5 µM, 5 h | relative to: untreated cells | fold change | 2.12
Br.CN(C)c1nc(=Nc2cccc(Cl)c2)ss1 | C127 LDR GFP reporter cells | silenced GFP reporter induction, activator, high-content imaging |  | retest, two-run mean |  | efficacy | 41%
CCCCCNC(=O)N1CCC(CN(Cc2ccc(Cl)cc2)Cc2ccc([N+](=O)[O-])s2)C1 (centres unmarked) | knock-down, REV-ERBα/β, HepG2 | transcription, qPCR, refers to: BMAL1 mRNA |  | concentration not given |  | inhibition | 5.9%

For quick reference, copied from above:
Compound | cell line | assay | system | setting | scale | quantity | result
CC1(C)CCC(CN2CCN(c3ccc(C(=O)NS(=O)(=O)c4ccc(NCC5CCOCC5)c([N+](=O)[O-])c4)c(Oc4cnc5[nH]ccc5c4)c3)CC2)=C(c2ccc(Cl)cc2)C1 | K562 | annexin V/PI flow cytometry, refers to: annexin V+/PI- |  | 3.2 µM, 24 h |  | early apoptotic cells | 2.9%
C[C@@H]1CN(c2c(F)c(F)c3c(=O)c(C(=O)O)cn(C4CC4)c3c2F)C[C@H](C)N1 | human iPSC-derived cardiomyocytes | MyBP-C/MYH ratio, plate-normalised SD score |  | concentration not given, primary screen | direction not given | activity score | 4.1
C=CC1=C(C)c2cc3[n-]c(cc4nc(cc5[n-]c(cc1n2)c(C)c5C=C)C(C)=C4CCC(=O)O)c(CCC(=O)O)c3C.[Zn+2] | SH-SY5Y | RNA-seq, refers to: NEAT1 |  | 5 µM, 5 h | relative to: untreated | log2 fold change | 1.96
C[C@H]1CNCCN1c1nccc(-c2noc3c2CCC[C@@]32CCCc3sc(N)c(C#N)c32)n1 | Ba/F3 (HRAS dependent) | cell growth |  | 72 h, without IL-3 |  | EC50 | 2.36 µM
CCCCc1oc2ccc(NS(C)(=O)=O)cc2c1C(=O)c1ccc(OCCCN(CCCC)CCCC)cc1 | human embryonic stem cell aggregates | mRNA level, microarray, refers to: GPC4 |  | 0.5 µM, 120 h | relative to: untreated, down-regulated | fold change | 2.1 fold
